Measurements of several laboratories.
Several values in a cell are separate wells, animals, samples, runs or records. ± gives the spread as reported.

SMILES	assay	test system	setting	scale	endpoint	value
[2H]C([2H])([2H])C([2H])([2H])C([2H])([2H])OC(C(=O)OC1CCNCC1)(c1ccccc1)c1ccccc1	item: otitis media	healthy Japanese male	oral, 12 mg once daily, 16 days	–	adverse drug reactions	0%
CCCC[C@H]1C(=O)N(C)[C@@H](CCCC)C(=O)N[C@@H](CCCNC(=O)CN2CCN(CC(=O)O)CCN(CC(=O)O)CCN(CC(=O)O)CC2)C(=O)N[C@H](C(=O)NCC(N)=O)CSCC(=O)N[C@@H](Cc2ccc(O)cc2)C(=O)N(C)[C@@H](C)C(=O)N[C@@H](CC(N)=O)C(=O)N2CCC[C@H]2C(=O)N[C@@H](Cc2c[nH]cn2)C(=O)N[C@@H](CC(C)C)C(=O)N(C)CC(=O)N[C@@H](Cc2c[nH]c3ccccc23)C(=O)N[C@@H](CO)C(=O)N[C@@H](Cc2c[nH]c3ccccc23)C(=O)N1C [gallium-68 labelled]	static PET	NOD/SCID mice, CHO-hPD-L1 xenograft, CHO-hPD-L1 tumour	intravenous, 60 min post injection	–	tumour to muscle ratio	9.41 ± 1.21
COc1ccc(C)cc1NC(=O)OC1CC2CCCC(C1)N2Cc1ccc(CC[18F])cc1 (centres unmarked)	–	BALB/c mice, EMT6 tumour	30 min	reference: tumour over muscle	tumour to tissue ratio	1.32
CC(=O)c1cccc(-c2cccc(OC(=O)NC3CCCCC3)c2)c1	–	rat plasma	–	–	log hydrolysis rate constant	-1.5
CC(C)C[C@H](NC(=O)[C@H](CCCCN)NC(=O)[C@H](CCC(=O)O)NC(=O)[C@H](C)NC(=O)[C@@H](NC(=O)[C@H](CCCCN)NC(=O)[C@H](CC(=O)O)NC(=O)[C@H](Cc1ccc(O)cc1)NC(=O)[C@H](Cc1ccccc1)NC(=O)[C@H](C)NC(=O)[C@H](CCCCN)NC(=O)[C@H](CC(C)C)NC(=O)[C@H](Cc1c[nH]c2ccccc12)NC(=O)[C@@H](N)CC(=O)O)C(C)C)C(=O)N[C@@H](CCCCN)C(=O)N[C@@H](CCC(=O)O)C(=O)N[C@@H](C)C(=O)N[C@@H](Cc1ccccc1)C(=O)N1CCC[C@H]1C(=O)N[C@@H](CC(=O)O)C(=O)N[C@@H](Cc1c[nH]c2ccccc12)C(=O)N[C@@H](C)C(=O)N[C@@H](CCCCN)C(=O)N[C@@H](C)C(=O)N[C@@H](C)C(=O)N[C@@H](Cc1ccc(O)cc1)C(=O)N[C@@H](CC(=O)O)C(=O)N[C@@H](CCCCN)C(=O)N[C@@H](C)C(=O)N[C@@H](C)C(=O)N[C@@H](CCC(=O)O)C(=O)N[C@@H](CCCCN)C(=O)N[C@@H](C)C(=O)N[C@@H](CCCCN)C(=O)N[C@@H](CCC(=O)O)C(=O)N[C@@H](C)C(=O)N[C@@H](C)C(=O)O	–	cynomolgus monkey male, plasma	intravenous infusion, 25 mg/kg, day 1, 30 min infusion	–	Tmax	0 h
O=P1(NCCCl)NCCCO1 (centres unmarked)	–	rat, plasma	intravenous, 10 mg/kg CP, together with: ketoconazole 0 mg/kg	–	Tmax	1.25 ± 0.418 h
CC(C)C[C@@H](NC(=O)[C@@H](CCCCN)NC(=O)CNC(=O)CNC(=O)[C@@H]1CSSC[C@H](N)C(=O)NCC(=O)N[C@@H](CCCNC(=N)N)C(=O)N[C@@H](CCCNC(=N)N)C(=O)N[C@@H](C)C(=O)NCC(=O)NCC(=O)N[C@@H](CO)C(=O)N1)C(=O)N[C@H](C)C(=O)N[C@H](CCCCN)C(=O)N[C@H](CC(C)C)C(=O)N[C@H](C)C(=O)N[C@H](CCCCN)C(=O)N[C@H](CCCCN)C(=O)N[C@H](CC(C)C)C(=O)N[C@H](C)C(=O)N[C@H](CCCCN)C(=O)N[C@H](CC(C)C)C(=O)N[C@H](C)C(=O)N[C@H](CCCCN)C(=O)O	–	cynomolgus monkey, plasma	intravenous, 9 mg/kg, infusion	–	Vd	2.58 L
CC(C)[C@H](NC(=O)CNC(=O)[C@H](CCC(N)=O)NC(=O)[C@H](C)N)C(=O)O	item: short-lasting dizziness	human	concentration not given, continuous infusion, highest dose	–	subjects with adverse event	33%
[3H]c1sc(C)nc1C=C(C)C1CC2C(CCCC(C)C(O)C(C)C(=O)C(C)(C)C(O)CC(=O)O1)N2CCO (centres unmarked)	whole-body autoradiography	CD2F1 mice, M109 FR− tumour periphery	intravenous, 2.2 nmol/kg, 0.5 h	–	radioactivity in tissue	3.3 ± 1 µg-eq/g
CSCC[C@H](NC(=O)CNC(=O)[C@H](CC(=O)O)NC(=O)[C@@H](NC(=O)[C@@H](NC(=O)[C@@H](NC(=O)CNC(=O)[C@H](CCC(N)=O)NC(=O)[C@H](CCSC)NC(=O)[C@H](CC(=O)O)NC(=O)[C@H](C)NC(=O)[C@H](C)NC(=O)[C@@H](NC(=O)[C@H](CO)NC(=O)[C@@H](N)CC(C)C)[C@@H](C)O)C(C)C)C(C)C)[C@@H](C)O)C(=O)N[C@@H](C)C(=O)N[C@@H](CO)C(=O)NCC(=O)N[C@@H](CC(C)C)C(=O)N[C@@H](CC(=O)O)C(=O)N[C@@H](CCCCN)C(=O)N[C@@H](CC(=O)O)C(=O)N[C@@H](Cc1ccc(O)cc1)C(=O)N[C@@H](CC(C)C)C(=O)N[C@@H](CCCCN)C(=O)N1CCC[C@H]1C(=O)N[C@@H](CC(=O)O)C(=O)N[C@@H](CC(=O)O)C(=O)O	LC-MS/MS	patients, serum	intravenous infusion, 4.16 mg/kg	–	terminal half-life (t1/2γ)	4.12 h
CC(C)C(=O)OC1O[C@@H]2O[C@@]3(C)CC[C@H]4[C@H](C)CCC([C@H]1C)[C@@]24OO3 (some centres unmarked)	–	Tg(fli1:EGFP) zebrafish embryos	10 µg/mL, up to 48 hpf	–	dead embryos	5 count
CC(COC(=O)c1ccccc1)OC(=O)C(N)Cc1ccccc1 (mixture of isomers)	–	isotonic buffer	pH 4.0, 37 °C	–	half-life	> 30 h
CCCCCCCC(=O)OC[C@H](NC(=O)[C@H](CO)NC(=O)CN)C(=O)N[C@@H](Cc1ccccc1)C(=O)N[C@@H](CC(C)C)C(=O)N[C@@H](CO)C(=O)N1CCC[C@H]1C(=O)N[C@@H](CCC(=O)O)C(=O)N[C@@H](Cc1cnc[nH]1)C(=O)N[C@@H](CCC(N)=O)C(=O)N[C@@H](CCCNC(=N)N)C(=O)N[C@H](C(=O)N[C@@H](CCC(N)=O)C(=O)N[C@@H](CCC(N)=O)C(=O)N[C@@H](CCCNC(=N)N)C(=O)N[C@@H](CCCCN)C(=O)N[C@@H](CCC(=O)O)C(=O)N[C@@H](CO)C(=O)N[C@@H](CCCCN)C(=O)N[C@@H](CCCCN)C(=O)N1CCC[C@H]1C(=O)N1CCC[C@H]1C(=O)N[C@@H](C)C(=O)N[C@@H](CCCCN)C(=O)N[C@@H](CC(C)C)C(=O)N[C@@H](CCC(N)=O)C(=O)N1CCC[C@H]1C(=O)N[C@@H](CCCNC(=N)N)C(=O)O)C(C)C	–	human, plasma	intravenous infusion, 1 µg/kg/h	reference: baseline	peak concentration fold increase	118 fold
CSCC[C@@H]1NC(=O)[C@@H]2CSSC[C@H](NC(=O)[C@H](CO)NC(=O)[C@H](C)N)C(=O)N[C@@H](CCCNC(=N)N)C(=O)N[C@@H]([C@@H](C)O)C(=O)N3CCC[C@H]3C(=O)N[C@@H](CCCCN)C(=O)N[C@@H](CC(=O)O)C(=O)N[C@H]3CSSC[C@H](NC(=O)[C@H](CCCCN)NC(=O)[C@H](CCCNC(=N)N)NC(=O)[C@H](CC(N)=O)NC1=O)C(=O)N[C@@H](CCCCN)C(=O)N[C@H]1CSSC[C@H](NC(=O)[C@@H]4CCCN4C(=O)[C@H](CC(=O)O)NC(=O)[C@H](C)NC3=O)C(=O)N[C@@H](C)C(=O)N[C@@H](CCCCN)C(=O)N[C@@H](CCC(=O)O)C(=O)N[C@@H]([C@@H](C)O)C(=O)NCC(=O)N[C@@H](CSSC[C@@H](C(N)=O)NC(=O)[C@H](CCCNC(=N)N)NC(=O)[C@H](CC(N)=O)NC1=O)C(=O)N1CCC[C@H]1C(=O)N[C@@H](Cc1ccc(O)cc1)C(=O)NCC(=O)N[C@@H](CCCCN)C(=O)N2	–	DA rat, pristane-induced arthritis, serum	subcutaneous, single 0.1 mg/kg at onset, end of 21-day trial	–	albumin/globulin ratio	3.14
CC(C)[C@@H]1NC(=O)[C@H](Cc2ccccc2)NC(=O)[C@H](Cc2ccc(O)cc2)NC(=O)CCSSC[C@@H](C(=O)N2CCC[C@H]2C(=O)N[C@H](CCCNC(=N)N)C(=O)NCC(N)=O)NC(=O)[C@H](CCC(N)=O)NC1=O	–	Wistar rat, blood	intravenous, 10 µg/kg single dose, 72 h	–	AST	51.2 ± 30.6 IU/L
CN[C@](C)(C[18F])C(=O)O	–	mouse, bone	30 min, tumour-bearing	–	tracer uptake	3.5 %ID/g
CC(=O)N[C@@H](CCCCN)C(=O)N[C@H](C(=O)NCC(=O)N[C@@H](CC(=O)O)C(=O)N[C@@H](CCC(=O)O)C(=O)N[C@@H](CCCCN)C(=O)N[C@@H](CCCCN)C(=O)NCC(=O)NCC(=O)N[C@@H](Cc1ccc(O)cc1)C(=O)NCC(=O)N[C@@H](CCCNC(=N)N)C(=O)N[C@@H](CCCCN)C(=O)N[C@@H](CCCCN)C(=O)N[C@@H](CCCNC(=N)N)C(=O)N[C@@H](CCCNC(=N)N)C(=O)N[C@@H](CCC(N)=O)C(=O)N[C@@H](CCCNC(=N)N)C(=O)N[C@@H](CCCNC(=N)N)C(=O)N[C@@H](CCCNC(=N)N)C(N)=O)[C@@H](C)O	–	PBS	up to 24 h, pH 7.4, 80 °C	–	HPLC purity	100%
CC(C)C[C@H](NC(=O)[C@H](Cc1ccc(O)cc1)NC(=O)CNC(=O)CNC(=O)CNC(=O)[C@H](Cc1c[nH]cn1)NC(=O)[C@H](Cc1c[nH]cn1)NC(=O)[C@@H](NC(=O)CNC(=O)[C@H](Cc1c[nH]cn1)NC(=O)[C@H](Cc1ccccc1)NC(=O)[C@H](CC(C)C)NC(=O)[C@H](CC(C)C)NC(=O)[C@H](CCCNC(=N)N)NC(=O)[C@H](Cc1ccccc1)NC(=O)[C@@H](N)Cc1ccccc1)C(C)C)C(=O)N[C@@H](CC(N)=O)C(=O)N[C@@H](C)C(=O)N[C@@H](C)C(N)=O	–	zebrafish embryos	1, 5, 25 µM, 4, 28, 52 hpf	–	toxicity	not toxic
COc1cc(NC(=O)C(=O)c2c(C)n(Cc3ccc(Cl)cc3)c3ccc(C)cc23)ccn1	–	cynomolgus monkey, male, plasma	intravenous, 1 mg/kg	–	t1/2	13.7 h and 14.5 h and 12.6 h and 24.9 h and 11.8 h and 19.5 h
CN(C)C(CNC(=O)Nc1cc(C(F)(F)F)ccc1N1CCOCC1)c1ccncc1 (centres unmarked)	–	mouse, serum	intraperitoneal, 120 mg/kg single dose	–	serum GGT	< 3 U/L
CCCCCCCCCCCCCCC(=O)O.O=C1CCCC2C3CCCN4CCCC(CN12)C34 (centres unmarked)	shake-flask	simulated body fluid	pH 7.4, 37 °C	–	log octanol-water partition coefficient	0.93
CCN(Cc1ccccc1)C(=O)CCc1nc(CN2CCN(C(=O)Cc3ccc(OC)c(OC)c3)CC2)no1	LC-MS	rat, dorsal root ganglion	intravenous, 1 mg/kg, 1.0 h	–	concentration	84 ± 0.6 ng/g
CC(C)(C)CC(C)(C)Nc1c(-c2ccc3c(c2)OCO3)nc2cnccn12	–	Wistar rat	oral, 14 days	–	LD50	< 2000 mg/kg
C[C@H]1C(=O)O[C@@H]2O[C@@]3(C)CC[C@@H]4[C@@]2(OO3)[C@H]1CC[C@]4(C)O	–	healthy Chinese human	oral, dose not given, day 2	–	free AUC(0-t)	0.628 ± 0.218 µM·h
Cc1ccc(/C=C/C(=O)O)cc1-c1cc2c(cc1C)C(C)(C)CCC2(C)C	–	Sprague-Dawley rat, male, plasma	oral, 100 mg/kg, 9 h, sesame oil vehicle	–	HDL level	56 ± 11.6 mg/dL
COC(=O)C[C@](O)(CCCC(C)(C)OC(C)=O)C(=O)O[C@@H]1C(OC)=C[C@]23CCCN2CCc2cc4c(cc2[C@H]13)OCO4	–	CD1 mouse, spleen	oral, 1 mg/kg, 24 h, below quantification limit 1.00 ng/mL	–	tissue concentration	not detected
CC[C@H](C)[C@H](NC(=O)[C@H](Cc1ccccc1)NC(=O)[C@@H]1CCCN1C(=O)[C@H](CCCCN)NC(=O)[C@H](CCCCN)NC(=O)[C@H](Cc1ccccc1)NC(=O)[C@H](Cc1ccccc1)NC(=O)[C@@H](C)NC(=O)[C@@H](N)Cc1ccc(O)cc1)C(=O)N[C@@H](CC(C)C)C(=O)O	–	anesthetized rat	intrathecal, 10 nmol/rat, 10 min	–	mean arterial pressure	87 ± 7 mmHg
CC[C@H](C)C(=O)N1CCC(NC(=O)Nc2ccc(OC(F)(F)F)c(F)c2)CC1	–	human, plasma	oral, 8 mg, single dose, fed, healthy volunteers	–	AUC(0-inf)	4260 ng·h/mL
CC(=O)[O-].F[P-](F)(F)(F)(F)F.[Co+2].c1ccc(CN2CCCN3CCN(CCCN(Cc4ccccc4)CC3)CC2)cc1	cyclic voltammetry, item: first Co2+/Co3+ couple	acetonitrile	–	–	peak separation	167 mV

Excerpt of the above:
SMILES	assay	test system	setting	scale	endpoint	value
CN(C)C(CNC(=O)Nc1cc(C(F)(F)F)ccc1N1CCOCC1)c1ccncc1 (centres unmarked)	–	mouse, serum	intraperitoneal, 120 mg/kg single dose	–	serum GGT	< 3 U/L
CCCCCCCCCCCCCCC(=O)O.O=C1CCCC2C3CCCN4CCCC(CN12)C34 (centres unmarked)	shake-flask	simulated body fluid	pH 7.4, 37 °C	–	log octanol-water partition coefficient	0.93
CCN(Cc1ccccc1)C(=O)CCc1nc(CN2CCN(C(=O)Cc3ccc(OC)c(OC)c3)CC2)no1	LC-MS	rat, dorsal root ganglion	intravenous, 1 mg/kg, 1.0 h	–	concentration	84 ± 0.6 ng/g
CC(C)(C)CC(C)(C)Nc1c(-c2ccc3c(c2)OCO3)nc2cnccn12	–	Wistar rat	oral, 14 days	–	LD50	< 2000 mg/kg
C[C@H]1C(=O)O[C@@H]2O[C@@]3(C)CC[C@@H]4[C@@]2(OO3)[C@H]1CC[C@]4(C)O	–	healthy Chinese human	oral, dose not given, day 2	–	free AUC(0-t)	0.628 ± 0.218 µM·h
